Assay results of several laboratories.
Compare with care: the assays were run in different laboratories.
Organism: Acinetobacter baumannii

SMILES	assay	system	setting	how to read	MIC
CC1(C)S[C@@H]2[C@H](NC(=O)[C@H](C(=O)O)c3ccsc3)C(=O)N2[C@H]1C(=O)O		carbapenem-resistant clinical isolate			> 64 µg/mL
CCCCCCCC(=O)N[C@@H](CCCNC(=N)N)C(=O)N[C@@H](CCCNC(=N)N)C(=O)N[C@@H](CCCNC(=N)N)C(=O)N[C@@H](CCCNC(=N)N)C(=O)N[C@H](C(=O)N[C@@H](CC(C)C)C(=O)N[C@H](C(=O)N[C@@H](CCCCN)C(=O)N[C@@H](CCCCN)C(=O)N[C@H](C(=O)N[C@@H](CC(C)C)C(=O)N[C@@H](CCCCN)C(=O)N[C@@H](CC(C)C)C(=O)N[C@@H](CCCCN)C(=O)N[C@@H](CO)C(=O)N[C@@H](CO)C(=O)N[C@@H](C)C(=O)N[C@@H](Cc1ccc(O)cc1)C(N)=O)C(C)C)[C@@H](C)CC)[C@@H](C)CC	broth microdilution	ATCC 17978	highest value reported		4 µM
CCCCCCCC(=O)N[C@@H](CCN)C(=O)N[C@H](C(=O)N[C@@H](CCN)C(=O)N[C@H]1CCNC(=O)[C@H]([C@@H](C)O)NC(=O)[C@H](CCN)NC(=O)[C@H](CCN)NC(=O)[C@H](Cc2ccccc2)NC(=O)[C@@H](CCc2ccccc2)NC(=O)[C@H](CCN)NC1=O)[C@@H](C)O	broth microdilution	colistin-resistant isolates			1 to 2 µg/mL
CC[C@H](C)[C@H](N)C(=O)N[C@@H](CCCNC(=N)N)C(=O)N[C@H](C(=O)N[C@@H](Cc1c[nH]c2ccccc12)C(=O)N[C@@H](Cc1ccccc1)C(=O)N[C@H](C(=O)N[C@@H](CCCCN)C(=O)N[C@H](C(=O)N[C@@H](CCCNC(=N)N)C(=O)N[C@@H](CCCCN)C(=O)N[C@@H](Cc1c[nH]c2ccccc12)C(=O)N[C@@H](CCCCN)C(=O)N[C@@H](C)C(=O)N[C@H](C(=O)N[C@@H](Cc1ccc(O)cc1)C(=O)N[C@@H](Cc1c[nH]cn1)C(=O)N[C@H](C(N)=O)[C@@H](C)O)[C@@H](C)CC)C(C)C)[C@@H](C)CC)C(C)C	broth dilution	ATCC 19606			12.5 µM
CC(NCCC(c1ccccc1)c1ccccc1)c1ccccc1 (stereo not shown)	growth inhibition	Tn7::dCas9 vector control	without ATc		4 µg/mL
CC[C@H](C)[C@H](NC(=O)[C@H](CC(C)C)NC(=O)[C@H](CCCNC(=N)N)NC(=O)[C@@H](N)CCCNC(=N)N)C(=O)N[C@@H](CCCNC(=N)N)C(=O)N[C@H](C(=O)N[C@@H](CC(=O)O)C(=O)N[C@H](C(=O)NCC(=O)N1CCC[C@H]1C(=O)N[C@H](C(=O)N[C@H](C(=O)N[C@@H](Cc1ccc(O)cc1)C(=O)N[C@@H](CC(=O)O)C(=O)N[C@@H](Cc1ccc(O)cc1)C(=O)N[C@@H](Cc1ccccc1)C(=O)N[C@@H](CCCCN)C(=O)N[C@@H](CC(=O)O)C(=O)N[C@@H](CCC(N)=O)C(=O)N[C@@H](CC(C)C)C(=O)N[C@@H](CC(C)C)C(=O)N[C@@H](CCCCN)C(=O)N[C@@H](CCCCN)C(N)=O)[C@@H](C)CC)[C@@H](C)CC)[C@@H](C)O)[C@@H](C)O		KCCM 40203, Mueller-Hinton broth	24 h		128 µM
CC[C@H](C)[C@H](NC(=O)CNC(=O)[C@H](CC(=O)O)NC(=O)[C@H](CCCNC(=N)N)NC(=O)[C@@H](NC(=O)[C@H](CC(N)=O)NC(=O)[C@H](CCCNC(=N)N)NC(=O)CNC(=O)[C@@H](NC(=O)[C@H](CCCCN)NC(=O)[C@H](CCCNC(=N)N)NC(=O)[C@@H](NC(=O)[C@H](CCCCN)NC(=O)[C@H](CCCCN)NC(=O)[C@H](Cc1ccccc1)NC(=O)[C@@H](NC(=O)[C@H](CCCCN)NC(=O)[C@H](Cc1c[nH]c2ccccc12)NC(=O)[C@@H](N)CCCNC(=N)N)[C@@H](C)CC)[C@@H](C)CC)C(C)C)C(C)C)C(=O)N[C@H](C(=O)N[C@@H](CCCCN)C(=O)N[C@@H](C)C(=O)NCC(=O)N1CCC[C@H]1C(=O)N[C@@H](C)C(=O)N[C@H](C(=O)N[C@@H](C)C(=O)N[C@H](C(=O)N[C@H](C(=O)NCC(=O)N[C@@H](CCC(N)=O)C(=O)N[C@@H](C)C(=O)N[C@@H](C)C(=O)N[C@H](C(=O)N[C@H](C(=O)N[C@H](C(=O)N[C@@H](CCCCN)C(N)=O)C(C)C)C(C)C)[C@@H](C)O)C(C)C)C(C)C)C(C)C)[C@@H](C)CC		KCCM 40203, Mueller-Hinton broth	16 h, 37 °C	growth inhibition over 99%	2 µM
CC[C@@H](C)[C@@H](N)C(=O)N[C@@H](C(=O)N[C@H](Cc1ccc(O)cc1)C(=O)N[C@@H](C(=O)N[C@H](CCN)C(=O)N[C@H](CC(C)C)C(=O)N[C@H](CO)C(=O)N[C@H](CCN)C(=O)N[C@@H](C(=O)N[C@H](CCN)C(=O)N[C@H](Cc1c[nH]cn1)C(=O)N[C@H](CCN)C(=O)N[C@H](C)C(=O)N[C@H](CCN)C(=O)N[C@H](CCN)C(N)=O)[C@H](C)CC)[C@H](C)CC)[C@H](C)CC		17978, colistin-sensitive, Mueller-Hinton broth			4 µg/mL
CC[C@H](C)[C@H](NC(=O)CNC(=O)[C@H](CC(=O)O)NC(=O)[C@H](CCCNC(=N)N)NC(=O)[C@@H](NC(=O)[C@H](CC(N)=O)NC(=O)[C@H](CCCNC(=N)N)NC(=O)CNC(=O)[C@@H](NC(=O)[C@H](CCCCN)NC(=O)[C@H](CCC(=O)O)NC(=O)[C@@H](NC(=O)[C@H](CCCCN)NC(=O)[C@H](CCCCN)NC(=O)[C@H](Cc1ccccc1)NC(=O)[C@@H](NC(=O)[C@H](CCCCN)NC(=O)[C@H](Cc1c[nH]c2ccccc12)NC(=O)[C@@H](N)CCCNC(=N)N)[C@@H](C)CC)[C@@H](C)CC)C(C)C)C(C)C)C(=O)N[C@H](C(=O)N[C@@H](CCCCN)C(=O)N[C@@H](C)C(=O)NCC(=O)N1CCC[C@H]1C(=O)N[C@@H](C)C(=O)N[C@H](C(=O)N[C@@H](C)C(=O)N[C@H](C(=O)N[C@H](C(=O)NCC(=O)N[C@@H](CCC(N)=O)C(=O)N[C@@H](C)C(=O)N[C@@H](C)C(=O)N[C@H](C(=O)N[C@H](C(=O)N[C@H](C(=O)N[C@@H](CCCCN)C(N)=O)C(C)C)C(C)C)[C@@H](C)O)C(C)C)C(C)C)C(C)C)[C@@H](C)CC		KCCM 40203, Mueller-Hinton broth	16 h, 37 °C	growth inhibition over 99%	2 µM
CC(=O)N[C@@H](CCCCN)C(=O)N[C@@H](CCCCN)C(=O)N[C@@H](CC(C)C)C(=O)N[C@@H](CC(C)C)C(=O)N[C@@H](CCCCN)C(=O)N[C@@H](CC(C)C)C(=O)N[C@@H](C)C(=O)N[C@@H](CCCCN)C(=O)N[C@@H](CCCCN)C(=O)N1CCC[C@H]1C(=O)N[C@@H](CC(C)C)C(=O)N[C@@H](CCCCN)C(=O)N[C@@H](CC(C)C)C(=O)N[C@@H](CC(C)C)C(=O)N[C@@H](CCCCN)C(N)=O	broth microdilution	ATCC 17978	18 h, 37 °C, compound alone		> 80 µM

Some of these lines once more:
SMILES	assay	system	setting	how to read	MIC
CC[C@H](C)[C@H](NC(=O)CNC(=O)[C@H](CC(=O)O)NC(=O)[C@H](CCCNC(=N)N)NC(=O)[C@@H](NC(=O)[C@H](CC(N)=O)NC(=O)[C@H](CCCNC(=N)N)NC(=O)CNC(=O)[C@@H](NC(=O)[C@H](CCCCN)NC(=O)[C@H](CCC(=O)O)NC(=O)[C@@H](NC(=O)[C@H](CCCCN)NC(=O)[C@H](CCCCN)NC(=O)[C@H](Cc1ccccc1)NC(=O)[C@@H](NC(=O)[C@H](CCCCN)NC(=O)[C@H](Cc1c[nH]c2ccccc12)NC(=O)[C@@H](N)CCCNC(=N)N)[C@@H](C)CC)[C@@H](C)CC)C(C)C)C(C)C)C(=O)N[C@H](C(=O)N[C@@H](CCCCN)C(=O)N[C@@H](C)C(=O)NCC(=O)N1CCC[C@H]1C(=O)N[C@@H](C)C(=O)N[C@H](C(=O)N[C@@H](C)C(=O)N[C@H](C(=O)N[C@H](C(=O)NCC(=O)N[C@@H](CCC(N)=O)C(=O)N[C@@H](C)C(=O)N[C@@H](C)C(=O)N[C@H](C(=O)N[C@H](C(=O)N[C@H](C(=O)N[C@@H](CCCCN)C(N)=O)C(C)C)C(C)C)[C@@H](C)O)C(C)C)C(C)C)C(C)C)[C@@H](C)CC		KCCM 40203, Mueller-Hinton broth	16 h, 37 °C	growth inhibition over 99%	2 µM
